Measurements collected from several papers.
A part holds a random share of what one study measured.

Series 1
Target: RING finger protein unkempt homolog, zinc fingers 1-6, GST-SBP tag (UNK, Homo sapiens, UniProt Q9C0B0, residues 30-357)
Technique: RNA Bind-n-Seq
Molecule type: RNA
Medium: in vitro
Tested at: not given
Notes: RNA with constant flanks, human and mouse sites, ends assumed
Relative to: input RNA pool
Direction: higher = stronger binding
Shared flanks, not repeated: GGGAGUUCUACAGUCCGACGAUC … CAACAGAGGAUUGAGCAUCA
Construct (chain): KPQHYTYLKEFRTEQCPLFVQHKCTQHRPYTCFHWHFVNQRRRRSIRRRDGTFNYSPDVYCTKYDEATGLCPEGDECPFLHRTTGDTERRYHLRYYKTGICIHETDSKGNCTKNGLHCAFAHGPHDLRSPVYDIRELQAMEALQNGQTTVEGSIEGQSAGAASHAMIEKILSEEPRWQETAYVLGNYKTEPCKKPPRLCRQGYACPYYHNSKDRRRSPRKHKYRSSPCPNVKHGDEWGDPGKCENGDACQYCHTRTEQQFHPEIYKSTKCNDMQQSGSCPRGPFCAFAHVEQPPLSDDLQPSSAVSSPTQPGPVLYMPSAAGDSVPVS
| Sequence | bound/input enrichment [ratio] |
| --- | --- |
| UCACUUGCUCAGCGUUUGGAAAAACACGAACUCAUUGAAUUCAGAAGAAUUGCUGCUUAUCUCUUCAAAGGCAACAAUCGCUGGAAACAGAGUGUAGAGUUGUGCAAGAAAGACAGCCUU | 0.0995 |
| GAGGAAACAGACUAUACUCCCGUUUGGUGCAUGAGACAGGCAGGCCGCUACUUACCAGAGUUUAGGGAAACCAGGGCUGCCCAGGACUUCUUCAGCACCUGCCGAUCUCCCGAGGCUUGC | 0.105 |
| UCAAGGAAAACAUCAACUGAAUGUGCAUCUAGUACAGAAAAUUCUUUCGUUGUCAGCAGUAGUUCAGUUUCUAAUACCACUGUUGCUGGAACUCCCCCAUACCCUACAAGUCGGAGGCAA | 0.225 |
| UAUACUAACAAGGUCAUUACUUUGUGGUAUCGUCCACCUGAAUUGCUCUUGGGAGAAGAACGAUAUACACCAGCCAUUGAUGUAUGGAGCUGUGGAUGUAUCCUUGGUGAACUCUUCACU | 0.118 |
| UCCAAAAAGAUUCAGCAGAUCCAUGUGGUUUCCCAGUUUAAGAUUCUGGUCAGCUUGUUAGAAAAUAACAUUUAUGUCCAUGACCUAUUGACAUUUCAACAAAUCACUACGGUUUCAAAG | 0.153 |
| GACCCCCAGGUUAUGGAAGACAAAUCCGACCGCCCUGUCUGCCGACAUUUUGCCAAAAAGGGCCACUGUCGAUAUGAGGACCUCUGUGCCUUCUACCAUCCAGGCGUCAAUGGACCUCCU | 0.112 |
| CACCAUAAAAAGUAACUCAUAACUCAUAAAUAAAGCAUAACUCAGUAAAGUGAGAAGGAUGAAUACCUAACAUGAAGGAGAUCCUUGGUGACAGGUAGGCAUGGGGACAAGAGCCACUCU | 0.233 |
| GCCCAGGGUCGCCAUGUGGAAAUAUUUGAGCUCCUUAAACCUCCGUGUGGAGGCCUCGGCUUUAGUGUUGUUGGGCUCAGAAGUGAAAACAGGGGCGAGCUGGGGAUAUUUGUCCAGGAG | 0.432 |
| UAUGAAAACACUGAAGAAAAGUCACGAAUCAGAUACAAUGUCCAACAGAAUUGUGCAUAUUAGUGUUCAGUUGUUCAGCAAUGAGGAGCUAGCCAGACAGGUGACAGAAGAGUGUCAGCU | 0.258 |
| UACACUGAUGUCUAUCCAGAAAUCAUUGAGCGCGCAUGCUUUGUCCUGGAGAAGAAAUUUGGAAUCCAGCUGAAGGAAAUCGACAAAGAAGAGCAUCUGUAUAUUCUCAUCAGUACCCCU | 0.138 |
| GCAGCUAUUGCACUAGUCAUUUUCUUCUUGAUUGGAUUCAUGAGUGGCUACCUGGGCUAUUGUAAGCGUGUAGAACAAAAAGAGGAGUGUGUGAAACUGGCUGAAACGGAGGAGACAGAC | 0.463 |

Series 2
Target: RNA binding protein fox-1 homolog 2, RRM domain, GST-SBP tag (RBFOX2, Homo sapiens, UniProt O43251-10, residues 100-194)
Technique: RNA Bind-n-Seq
Molecule type: RNA
Medium: in vitro
Tested at: 365 nM
Notes: natural RNA segment, single round, ends assumed
Relative to: no-protein control
Direction: higher = stronger binding
Shared flanks, not repeated: GGGAGUUCUACAGUCCGACGAUC … UGGAAUUCUCGGGUGCCAA
Target sequence (chain): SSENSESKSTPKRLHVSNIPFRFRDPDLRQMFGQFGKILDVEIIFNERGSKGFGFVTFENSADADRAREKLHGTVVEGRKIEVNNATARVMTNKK
| Sequence | RBNS enrichment (R) |
| --- | --- |
| CGCCUUACCUUUGAUGUCUGAAGCGAAACUCCUUUCACCAAGGGCCAGAUUCGGAAACUUCAACCUUGGCUGCUGGAGUCCUGUAGUGAUACCUGUAACAAUCAGAAAUU | 0.282 |
| GCUCCUUUGAGAGCACCAGAAACGCUUAGGGAGACACCUGUGUUGAGGCCACACUGGGCGCGGUGCCAGAGGCCCCUGGUCAGGCCAUGCCCCUGCAGUGUCCUUCGUUC | 0.343 |
| UGGUCUGGCCCCUCUUCAAGCCAUAUGUCUUAGAGGCCCUCAUAGUGCUCUCCCCUAAGUUGGGUGCUAAGAGCUUUUGUCAGUGAGGGGCCUCUGUCAUUGUCUCAAAG | 0.399 |
| AUAAGUUGUCCUUAGUCUCUUGUGCUGAUUCACUGUAUAAGCAUGAUCCUGGUAAUGCACUUUGGAUGGGAAGAAAAUGUACGUGCUUUUCAGAGGGGCUCUGAACAGAA | 17.4 |
| UUGUUUUCAAAAAAACAUUUGUCAGUAAUUUAACAUCACUACAAAAAGAAGAGUUUGUGACUAUUCUCAUCUCUGUUUUGGACGUUUACUAGACUUUGAUUUCCUUAAUA | 0.273 |
| UGCUGCCUUAGCUUCUAGAACGGAGCAAGCUUUUACGUACCUAGGUGACAUGUAGAAAAAUUUACAGUAAACUGAAAUGACCAUUUGUCAAUGCAUUGGUGCAUAGGAGU | 0.599 |
| UGGUCAGCACUUGUUAUUGGCCUAUGAACUAAAAGCAAAUCAAAGCUCAUAAAUCAAAGCUCAUCAGUUCCCAUAAAUGCAGUUGUCAAAGAAAAGAUUUGGUUGCCAUA | 0.464 |
| CAACCUCCUUCUUAUCUGUGAUAAAUCUAUAGAAAGAAUUUAGCUGCAAGUGGACAAAGGAACAAGCCCCCAGAAAAGAAAGGGAAGAACUGCCUUCUUAUACUACAGAA | 0.752 |
| GUUAGUAAUGUACACCUCUGAUGGGACUCCAAAGGGUGGUCCUUCACUUAGGUGUAGAGCCCCACAGAUGGACAUGUGAGGGAAUUCUUGGGGUGACAUAAACUAGAUAA | 0.735 |
| UGUCCUGAGCCUCUUGUUACCUUGUUACUUCAGCCUAGAGGACUGAGAAUGGAGAGCCCGAGAAGUGAAUCUUCCUUGUCCUGUAUAAUAAAUUAUUAAGUUGUGUUGGU | 0.911 |
| ACUGUACAAUUUCUUGGGGUUAACCAUCUUUAGUUAAAUGGAAUUUUAAUUUAAAUGACGCUUUGCUAAUUUUAAGUGUUAAGCAUUUUGCAUUAAAAUAUUCAUAUAAU | 0.87 |
| GAAGCUGAUACAUUGCACAAUUCUCUAGACACCACUCACUACACUAAUGCAGUUUUUCAAAUUCUAGUAUUAUGUGUUGCUUAAGAUCACUACAGAGAUGCUACUGAAGA | 0.42 |

Series 3
Target: Sal-like protein 4, full length isoform B (SALL4, Homo sapiens, UniProt Q9UJQ4-2, residues 1-616)
Technique: universal PBM
Molecule type: double-stranded DNA, one strand shown
Medium: in vitro
Tested at: not given
Notes: 8-mer, flanks averaged, mean of replicates
Direction: higher = stronger binding
Residues (chain): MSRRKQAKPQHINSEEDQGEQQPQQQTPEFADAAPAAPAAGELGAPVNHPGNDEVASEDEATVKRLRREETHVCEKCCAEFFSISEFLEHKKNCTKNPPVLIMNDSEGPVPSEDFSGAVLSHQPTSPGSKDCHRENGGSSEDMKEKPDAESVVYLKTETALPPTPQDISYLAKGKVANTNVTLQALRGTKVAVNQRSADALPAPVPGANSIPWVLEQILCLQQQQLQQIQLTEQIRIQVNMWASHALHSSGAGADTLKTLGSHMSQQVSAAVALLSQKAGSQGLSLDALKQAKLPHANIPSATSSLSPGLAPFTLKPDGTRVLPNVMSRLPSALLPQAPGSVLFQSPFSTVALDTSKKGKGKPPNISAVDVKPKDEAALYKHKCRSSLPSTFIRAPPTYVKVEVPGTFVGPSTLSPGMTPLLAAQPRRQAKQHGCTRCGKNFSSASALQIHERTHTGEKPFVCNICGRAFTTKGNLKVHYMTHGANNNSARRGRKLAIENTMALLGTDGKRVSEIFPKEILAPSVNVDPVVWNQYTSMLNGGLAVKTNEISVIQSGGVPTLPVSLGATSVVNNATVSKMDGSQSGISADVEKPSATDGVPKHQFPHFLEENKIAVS
| Sequence | E-score |
| --- | --- |
| CACCGTAA | 0.0471 |
| GATCACAA | 0.137 |
| AATAAAGG | 0.0764 |
| ATTAAGTC | 0.308 |
| ACCTGCAG | -0.16 |
| ACCTCTCG | -0.0637 |
| CATCGGAG | -0.178 |
| AGAGCGAG | -0.139 |
| TCACCCAA | 0.112 |
| GCAGGGTA | 0.0182 |
| TAGGTAAA | 0.203 |
| CCCATCCA | -0.00449 |
| GCCTGTAA | -0.0513 |
| CACCCCTG | -0.257 |
| AGCAATTC | 0.0786 |
| AATGATGA | 0.263 |
| GTTCCTGA | -0.18 |
| AACGACTC | -0.226 |
| TAGTCTCA | 0.162 |
| CATTGGAC | -0.0703 |
| CTGGCGTA | -0.16 |
| ATCCCATC | -0.0291 |
| CGTACCAA | -0.0281 |
| AATCAATC | 0.112 |
| CCTCGGCG | -0.374 |

Series 4
Target: Histone acetyltransferase KAT6A, both winged helices, GST fusion (KAT6A, Homo sapiens, UniProt Q92794, residues 1-181)
Technique: protein binding microarray
Molecule type: double-stranded DNA, one strand shown
Medium: in vitro
Tested at: not given
Notes: 8-mer, flanks averaged, mean of 2 arrays, mostly near background
Relative to: not given
Direction: higher = stronger binding
Target sequence (chain): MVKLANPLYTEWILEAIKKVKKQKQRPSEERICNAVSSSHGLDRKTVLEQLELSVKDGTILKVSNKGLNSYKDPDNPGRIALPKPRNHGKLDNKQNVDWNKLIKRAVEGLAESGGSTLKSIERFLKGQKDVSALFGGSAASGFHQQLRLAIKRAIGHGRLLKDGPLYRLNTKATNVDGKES
| Sequence | E-score |
| --- | --- |
| GGGTCGGA | 0.0781 |
| TAAATCAA | -0.0138 |
| CCCCTATA | -0.0608 |
| AGTCATGA | -0.0462 |
| CGAGTTCA | -0.135 |
| CCTGACAG | -0.0839 |
| GACACCCC | -0.0652 |
| GAAAGAGA | -0.125 |
| ATTGCCCG | 0.0783 |
| AGTTAGAA | -0.0908 |
| AGTATCTC | 0.00629 |
| CCTTCGCA | 0.000475 |
| ACGCAAGG | -0.113 |
| GTTTAAAA | -0.102 |
| GCAAGCGA | 0.0956 |
| CGAGGCTC | 0.087 |
| AATGGACT | -0.252 |
| CGTCTGCA | 0.0202 |
| ATTGTGAC | -0.087 |
| ACCCAGCG | 0.118 |
| ATCGAACA | -0.0645 |
| GAAAGTTC | -0.124 |
| AACTTAAA | -0.0936 |
| GCCATAAC | -0.105 |
| GGGGCCGA | 0.0511 |

Series 5
Target: TAR DNA-binding protein 43, full length, His tag (TARDBP, Homo sapiens, UniProt Q13148, residues 1-414)
Technique: RNA Bind-n-Seq
Molecule type: RNA
Medium: in vitro
Tested at: 20 nM
Notes: 6-mer, flanks averaged, single round
Added: 150 mM LiCl
Relative to: input library
Direction: higher = stronger binding
| Sequence | 6-mer enrichment (R) |
| --- | --- |
| UCGUUC | 0.876 |
| UGGUGG | 1.45 |
| CCUUCU | 0.973 |
| GGACCC | 1 |
| GGUCGU | 1.07 |
| ACAGGA | 0.866 |
| GUCUCU | 0.919 |
| AUGACU | 0.842 |
| CUACUG | 0.869 |
| ACGGAA | 0.864 |
| GGUCUU | 0.943 |
| UCUCAA | 0.823 |
| GACCUA | 0.838 |
| CCUCAC | 0.942 |
| ACAAAU | 0.883 |

Some of these lines once more (series 5):
| Sequence | 6-mer enrichment (R) |
| --- | --- |
| UGGUGG | 1.45 |
| CCUUCU | 0.973 |
| GGACCC | 1 |
| GGUCGU | 1.07 |
| ACAGGA | 0.866 |
| GUCUCU | 0.919 |
| AUGACU | 0.842 |
| CUACUG | 0.869 |
| ACGGAA | 0.864 |
| GGUCUU | 0.943 |
